Measurements pooled from the literature.
Lines come from different studies, so protocols differ. ± gives the spread as reported.
Cell line: HCT-116

C=C(C)C[C@H](OC)[C@H](O)C(=O)N[C@@H](OC)[C@@H]1C[C@H](O)C(C)(C)[C@@H](C[C@H](O)[C@@H](C)[C@H]2Cc3c(C)c(O)cc(O)c3C(=O)O2)O1  IC50 (cell growth or viability): 0.003 µM
CC(C)C[C@H](NC(=O)[C@H](CC(C)C)NC(=O)[C@H](CC(=O)O)NC(=O)[C@H](CCCCN)NC(=O)[C@H](Cc1ccccc1)NC(=O)CN)C(=O)N[C@@H](CCCCN)C(=O)N[C@H]1CSCc2ccccc2CSC[C@@H](C(=O)N[C@@H](CC(C)C)C(=O)N[C@H](C(=O)N[C@@H](CCCCN)C(=O)N[C@H](C(=O)N[C@H](C(=O)N[C@@H](CC(C)C)C(=O)N[C@@H](Cc2ccccc2)C(N)=O)C(C)C)[C@@H](C)O)C(C)C)NC(=O)[C@H](CCCCN)NC(=O)[C@H](C)NC(=O)[C@H](C)NC1=O  IC50 (cell growth or viability, CCK-8): 4.78 µM
O=C(CN1C(=O)S/C(=C\c2ccccc2)C1=O)Nc1ccc(C(=O)Nc2ccc(F)cc2)cc1  selectivity index (MTT; baseline: IC50 Vero over IC50 HCT-116): 22.7
C=C(CO)[C@H]1Cc2c(ccc3c2O[C@@H]2COc4cc(OC)c(OC)cc4[C@]2(O)C3=O)O1  IC50 (cell growth or viability, MTT; 72 h): 16.6 µM
OC[C@H]1[C@@H](O)[C@@H](O)CN1Cc1ccccc1  IC50 (cell growth or viability, MTS; 72 h): > 200 µM
[Ga+3].[O-]c1ccc(Br)c2cccnc12.[O-]c1ccc(Br)c2cccnc12.[O-]c1ccc(Br)c2cccnc12  inhibition (cell growth or viability, SRB; 10 µM, 48 h): 83.8%
CCCCCCCCC[P+](c1ccccc1)(c1ccccc1)c1ccccc1  GI50 (cell growth or viability; 72 h): 0.092 µM
CCCCCCCC(=O)SCCC=CC1CC(=O)NCc2nc(cs2)C2=NC(C)(CS2)C(=O)NC(C(C)C)C(=O)O1 (stereo not drawn)  GI50 (cell growth or viability): > 10 µM
CC(C)C[C@H](NC(=O)[C@H](C)NC(=O)[C@H](CCCCN)NC(=O)[C@H](C)NC(=O)[C@H](C)NC(=O)[C@@H]1CSCc2ccccc2CSC[C@H](NC(=O)[C@H](CCCCN)NC(=O)[C@H](Cc2ccccc2)NC(=O)CN)C(=O)N[C@@H](CC(C)C)C(=O)N[C@@H](CC(C)C)C(=O)N[C@@H](CCCCN)C(=O)N1)C(=O)N[C@H](C(=O)N[C@@H](CCCCN)C(=O)N[C@H](C(=O)N[C@H](C(=O)N[C@@H](CC(C)C)C(=O)N[C@@H](Cc1ccccc1)C(N)=O)C(C)C)[C@@H](C)O)C(C)C  IC50 (cell growth or viability, CCK-8): 15.7 µM
C=C(C)C[C@H](OC)[C@H](O)C(=O)NC[C@@H]1CCC[C@@H](C[C@H](O)[C@@H](C)[C@H]2Cc3c(C)c(O)cc(O)c3C(=O)O2)O1  IC50 (cell growth or viability): 0.16 µM
CCCc1cc2c(c(OC)c1OC)OCO2  GI50 (cell growth or viability; 72 h): > 250 µM
COC1CC(=O)N(C)C=CCCCC(=O)N(C)C(C(C)C)C(=O)N(C)C(CC(C)C)C(=O)OC(C(C)C)CC(C)C1 (stereo not drawn)  pathway activation z-score (RNA sequencing, refers to: cholesterol biosynthesis superpathway; 20 µM, 12 h; direction not given): 2
C[P+](c1ccccc1)(c1ccccc1)c1ccccc1  GI50 (cell growth or viability; 72 h): 13.7 µM
CC(C)C[C@H](NC(=O)[C@H](CC(C)C)NC(=O)[C@H](CC(=O)O)NC(=O)[C@H](CCCCN)NC(=O)[C@H](Cc1ccccc1)NC(=O)CN)C(=O)N[C@@H](CCCCN)C(=O)N[C@H]1CSCc2cccc(c2)CSC[C@@H](C(=O)N[C@@H](CC(C)C)C(=O)N[C@H](C(=O)N[C@@H](CCCCN)C(=O)N[C@H](C(=O)N[C@H](C(=O)N[C@@H](CC(C)C)C(=O)N[C@@H](Cc2ccccc2)C(N)=O)C(C)C)[C@@H](C)O)C(C)C)NC(=O)[C@H](CCCCN)NC(=O)[C@H](C)NC(=O)[C@H](C)NC1=O  IC50 (cell growth or viability, CCK-8): 5.69 µM
COc1cc(C)c(OC)c(OC)c1OC  GI50 (cell growth or viability; 72 h): > 250 µM
Cc1cc(O)cc(-c2nc(Nc3cc(C(F)(F)F)cc(C(F)(F)F)c3)ncc2-c2ccnc(Cl)c2)c1  viability decrease (10 µM, 72 h; baseline: untreated cells): > 50%
CCCCCCCCCCCCCCCC[P+](c1ccccc1)(c1ccccc1)c1ccccc1  GI50 (cell growth or viability, MTT; 72 h): 0.451 µM
CC(C)CCC[C@@H](C)[C@H]1CC[C@H]2[C@@H]3CC=C4C[C@@H](OC(=O)NCCCCCC(=O)N[C@@H](CCCCNC(=O)CCCc5ccc(N(CCCl)CCCl)cc5)C(=O)NCCCCCC(=O)N[C@H](CCCNC(=N)N)C(=O)N[C@@H](CCCNC(=N)N)C(=O)N[C@@H](Cc5c(F)c(F)c(F)c(F)c5F)C(=O)N[C@@H](CCCNC(=N)N)C(=O)N[C@@H]5CSCc6ccccc6CSC[C@@H](C(=O)N[C@H](CCCNC(=N)N)C(=O)N[C@@H](CC6CCCCC6)C(=O)N[C@@H](CCCNC(=N)N)C(=O)N6Cc7ccccc7C6C(N)=O)NC(=O)[C@H](Cc6cccc7ccccc67)NC(=O)[C@H](Cc6ccc(O)cc6)NC5=O)CC[C@]4(C)[C@H]3CC[C@]12C (stereo partly drawn)  EC50: 7.9 ± 1.3 µM
COc1cc(C)cc2c1OCO2  GI50 (cell growth or viability, MTT; 72 h): 32.9 µM
CC[C@H](C)[C@H](NC(=O)[C@H](Cc1ccc(O)cc1)NC(=O)[C@@H]1CCCN1C(=O)[C@H](C)NC(=O)[C@H](CC(C)C)NC(=O)[C@H](C)NC(=O)CCCCCNC(=O)[C@H](Cc1ccc(O)cc1)NC(=O)[C@H](Cc1c[nH]cn1)NC(=O)[C@H](CCSC)NC(=O)[C@H](CCSC)NC(=O)[C@H](CC(=O)O)NC(=O)[C@@H]1CCCN1C(=O)[C@@H]1CCCN1C(=O)[C@H](Cc1c[nH]c2ccccc12)NC(=O)[C@H](CO)NC(=O)[C@@H](NC(=O)[C@H](Cc1ccc(O)cc1)NC(=O)[C@H](Cc1ccc(O)cc1)NC(C)=O)C(C)C)C(=O)N1CCC[C@H]1C(=O)N[C@@H](Cc1ccc(O)cc1)C(=O)NCC(=O)N[C@@H](CCCNC(=N)N)C(=O)N[C@@H](CCCCN)C(=O)N[C@@H](CCCCN)C(=O)N[C@@H](CCCNC(=N)N)C(=O)N[C@@H](CCCNC(=N)N)C(=O)N[C@@H](CCC(N)=O)C(=O)N[C@@H](CCCNC(=N)N)C(=O)N[C@@H](CCCNC(=N)N)C(=O)N[C@@H](CCCNC(=N)N)C(N)=O  IC50 (cell growth or viability, CCK-8): 14.9 µM
CCCc1cc(OC)c2c(c1OC)OCO2  GI50 (cell growth or viability, MTT; 72 h): 112 µM
CC(C)C[C@H](NC(=O)[C@H](C)NC(=O)[C@H](CCCCN)NC(=O)[C@H](C)NC(=O)[C@H](C)NC(=O)[C@@H]1CSCc2cccc(c2)CSC[C@H](NC(=O)[C@H](CCCCN)NC(=O)[C@H](Cc2ccccc2)NC(=O)CN)C(=O)N[C@@H](CC(C)C)C(=O)N[C@@H](CC(C)C)C(=O)N[C@@H](CCCCN)C(=O)N1)C(=O)N[C@H](C(=O)N[C@@H](CCCCN)C(=O)N[C@H](C(=O)N[C@H](C(=O)N[C@@H](CC(C)C)C(=O)N[C@@H](Cc1ccccc1)C(N)=O)C(C)C)[C@@H](C)O)C(C)C  IC50 (cell growth or viability, CCK-8): 20.9 µM
C=CCc1cc(OC)c(OC)c(OC)c1OC  GI50 (cell growth or viability; 72 h): > 250 µM
O=C(CN1C(=O)S/C(=C\c2ccccc2Br)C1=O)Nc1ccc(C(=O)Nc2ccc(F)cc2)cc1  selectivity index (MTT; baseline: IC50 Vero over IC50 HCT-116): 16.9

A few entries again:
C=C(CO)[C@H]1Cc2c(ccc3c2O[C@@H]2COc4cc(OC)c(OC)cc4[C@]2(O)C3=O)O1  IC50 (cell growth or viability, MTT; 72 h): 16.6 µM
OC[C@H]1[C@@H](O)[C@@H](O)CN1Cc1ccccc1  IC50 (cell growth or viability, MTS; 72 h): > 200 µM
